Measured values gathered from unrelated publications.
Each numbered part is a random draw from the data of one study; scales do not carry over between parts.

Sample 1 — method: protein-binding microarray; molecule type: double-stranded DNA, one strand shown; matrix: in vitro; concentration: 250 nM; notes: 60-bp whole probe; added: salmon DNA 0.4 mg/ml; baseline: random background probes; reading: higher = stronger binding; all sequences stand within: GCCTAGCAC … GTCTTGATTCGCTTGACGCTGCTG
Target: Interferon regulatory factor 7, full length, phosphomimetic (IRF7, Homo sapiens, UniProt Q92985, residues 1-503, S101K/S471D/S472D/S475D/S476D/S477D/S483D/S484D/S487D)
Chain of UniProt Q92985 (whole entry, unmodified, looked up): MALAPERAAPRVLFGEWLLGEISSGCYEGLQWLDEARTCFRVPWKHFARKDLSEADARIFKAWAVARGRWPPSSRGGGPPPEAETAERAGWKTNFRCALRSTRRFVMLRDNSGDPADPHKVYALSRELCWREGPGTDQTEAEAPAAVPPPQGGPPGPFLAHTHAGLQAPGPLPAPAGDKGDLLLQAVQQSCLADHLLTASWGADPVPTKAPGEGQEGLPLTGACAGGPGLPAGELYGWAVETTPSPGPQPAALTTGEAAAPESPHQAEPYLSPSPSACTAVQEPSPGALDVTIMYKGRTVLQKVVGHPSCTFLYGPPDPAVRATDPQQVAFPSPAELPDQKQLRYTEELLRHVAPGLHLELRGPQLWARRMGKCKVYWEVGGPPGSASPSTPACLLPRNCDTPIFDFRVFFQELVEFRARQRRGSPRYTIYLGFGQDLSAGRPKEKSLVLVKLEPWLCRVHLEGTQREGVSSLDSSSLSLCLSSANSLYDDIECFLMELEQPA
| Sequence | log fluorescence [z-score] |
| --- | --- |
| GACGGTTTCCTTATCCTGCCGTGCTAG | 2.8 |
| GTCGATCTCAGTCTCGAGACGTGCTAG | 0.877 |
| GACGATTTCAGTCTCGAGCCGTGCTAG | 0.274 |
| GACGTTATCGGGACTGGAGACGTGCTA | -0.103 |
| TTAGATATCAGAATGGATTAGTGCTAG | -0.341 |
| GACGGCATCGGGACTGGGGACGTGCTA | -0.891 |
| GACGGTAGCGGTATCGGGACGTGCTAG | -0.208 |
| TCAAAGATTTTTATCAAACTGTGCTAG | -0.0471 |
| GACGAACTGGGATATCGAGACGTGCTA | -0.346 |
| TCCCAAGTCTTGTTTTACAATGTGCTA | 1.81 |
| TTAGATCTCAGTTTCGAATAGTGCTAG | 4.09 |
| GACGAACTGAGAATGGAGACGTGCTAG | 0.213 |
| GCTTTTATCCCTGACAGAAGGTGCTAG | 1.85 |
| GACGATTTCGGGTTACGAGACGTGCTA | 2.58 |
| GACGATATCGGGTATCGTGACGTGCTA | -0.291 |
| GACGGGATCGGACTGGGGACGTGCTAG | 0.0783 |
| TACGGTTTCGACTATCGGGACGTGCTA | 5.77 |
| GACGGTATCGGGACTGGAGACGTGCTA | -0.246 |

Sample 2 — method: RNA Bind-n-Seq; molecule type: RNA; matrix: in vitro; concentration: 200 nM; notes: whole 134-nt RNA, ends assumed; added: 150 mM LiCl; baseline: input library; reading: higher = stronger binding; library: 7-deaza-guanosine replaces G
Target: Ras GTPase-activating protein-binding protein 1, full length (G3BP1, Homo sapiens, UniProt Q13283)
Chain of UniProt Q13283 (whole entry, looked up): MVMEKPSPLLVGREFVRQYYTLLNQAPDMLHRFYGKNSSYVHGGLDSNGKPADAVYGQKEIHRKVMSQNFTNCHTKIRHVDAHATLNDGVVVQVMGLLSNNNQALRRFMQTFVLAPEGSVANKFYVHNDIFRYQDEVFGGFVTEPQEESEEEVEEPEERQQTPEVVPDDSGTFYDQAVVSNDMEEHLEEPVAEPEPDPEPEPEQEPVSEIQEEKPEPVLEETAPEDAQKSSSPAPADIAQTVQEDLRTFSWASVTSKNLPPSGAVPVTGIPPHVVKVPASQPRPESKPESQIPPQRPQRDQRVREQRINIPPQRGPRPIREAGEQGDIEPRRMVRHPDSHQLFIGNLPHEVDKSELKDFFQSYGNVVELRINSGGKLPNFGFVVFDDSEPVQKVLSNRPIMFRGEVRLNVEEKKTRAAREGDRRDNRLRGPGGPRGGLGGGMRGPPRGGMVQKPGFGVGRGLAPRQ
All sequences stand within: GGGAGUUCUACAGUCCGACGAUC … UGGAAUUCUCGGGUGUCAAGG
| Sequence | log2 enrichment |
| --- | --- |
| CCUCAAGUCCUGUGCUACACAUCGUAUGUACCGAAUCGGAGGGGAGGGAGGGAAAGUAUUAUGUUACGCCGUUCGGAUCUGCACUUCCAG | 0.449 |
| ACCAUGCAGGUGGGGAUCUUUGGGAAGUGGGGCAAGGGGGGGAUAGGGAGGGGGGUAACACUUUGGGAACAGGUGGUCCCAGGUCGUUUC | 0.38 |
| UGGGAGGUGGAUUUUGUUUAUUUUUUUAGCUCAUUUCCAGGGGUGGGAAUUUUUUUUUAAUAUAUGUCAUGAAUAAAGUUGUUUUUGAAA | -0.122 |
| GUCCUGUGCUACACAUCGUAUGUACCGAAUCGGGGUUUGGGGAAAGGGGAAAAAGGGGAAAGUAUUAUGUUACGCCGUUCGGAUCUGCAC | 0.319 |
| CAAGUCCUGUGCUACACAUCGUAUGUACCGAAUCGGAGGAAAAAGGUUUUUUUGGAAAGUAUUAUGUUACGCCGUUCGGAUCUGCACUUC | -0.805 |
| GCAGGAAGUAAAAACAAAUGGAAAUGCUCCGGAUAGUGGCAGGGGUGGGGGUUGCUAAGGAAAGGGUGGGAUGGGAGUGGGUAAAGAGUU | 0.12 |
| AAGUCCUGUGCUACACAUCGUAUGUACCGAAUCGGGGAGGGGAAAAAGGGGAGGGGAAAGUAUUAUGUUACGCCGUUCGGAUCUGCACUU | 0.73 |
| UGGCCCUGGUGGCAUGCCGGGAGGAAGAGGUGGCCUCAUGGAUCGUGGUGGUCCCGGUGGAAUGUUCAGAGGUGGCCGUGGUGGAGACAG | 0.538 |

Sample 3 — method: RNA Bind-n-Seq; molecule type: RNA; matrix: in vitro; concentration: 365 nM; baseline: no-protein control; reading: higher = stronger binding
Target: RNA binding protein fox-1 homolog 2, RRM domain, GST-SBP tag (RBFOX2, Homo sapiens, UniProt O43251-10, residues 100-194)
Notes: natural RNA segment, single round, ends assumed
All sequences stand within: GGGAGUUCUACAGUCCGACGAUC … UGGAAUUCUCGGGUGCCAA
Construct (chain): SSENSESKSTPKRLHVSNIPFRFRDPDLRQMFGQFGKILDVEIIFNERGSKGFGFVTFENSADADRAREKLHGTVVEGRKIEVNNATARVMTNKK
| Sequence | RBNS enrichment (R) |
| --- | --- |
| GGAGGUGGCUGGACCAUCGUACCCACGUAACCUGCCCAGGACGAUGCCUCGCUGGGGCUGAGACUUUUUUAAUCCUUGUGUAAAGAAGCGAGAUCGAGGCAGAGAAACGU | 0.461 |
| GCCUGUGUCGCAGCAGCCCAGCAUCAAGCAUGUCACACACUGCCCUGCCACAGCCACCUCCCUCCCUGGCCAUCCCAGAGCCGAGGCUCCCACUGUCCUCAGAGAGCCUG | 1.16 |
| AUACAGUUCUCUUUUAAACAUCAAACCAUAAAAAGUGUAUUUUGUAAUUUUACUCUGACCUGCCGCAGUCACCUCUCACUUAUCUCUUCCACGUACUGCACGGUCGUAUU | 4.01 |
| AAAGUCACCUUGUUUCCUACAUGAUUUUAGUCAUACCCAAACGUCCUCAGAAUCCCUACAUCCUGCUUAGAACUGUGGCCGGCCUAAUCUGUCAAGAGGCUUGGCUCUUC | 0.489 |
| GGACAUGCUUGGUGCUUUUGGUAUGCUGCAAACACAAAGUGGUGGAACAAGGGUCACUGGACCCUUGGGGAAAGUGGGAAAAGAGCUAUGUGCAAGGGCAGAUGCUCCAA | 3.96 |
| GUGGUGGCUCACACCUGUAAUCUCGGCACUUUGGGGGGCUGAGACAGGCGGAUCACCUGAGGCCAGGAAUUCAAGACCAGCCUGGCCAACAUGGUGAAACCCUAUCUCCA | 0.28 |
| UUGCUGGGAAUAGACAACCUCAGUGCUGAACUGUACUGGAGAAAAGGGGCAAGGUACCCGCUGAGGUGUGUGGGCUGACUGGAGGUCCUGGAUCCCCCUACUGCUCCCAG | 0.407 |
| GUGUGACUAAUACAUGUUCUACGAGUUAACUACUUUGGCAGUUUUAAUCAUUUCUUCUUUGUUUUGUGGUAAAGGGGAAAAAUUAAAAACCAGUUGGAACCCUUUUGUCU | 0.385 |

Sample 4 — method: RNA Bind-n-Seq; molecule type: RNA; matrix: in vitro; concentration: not given; notes: 4-mer, random 30-nt RNA, single round; added: RocA, ADP, phosphate; baseline: input library; reading: higher = stronger binding
Target: Eukaryotic initiation factor 4A-I (EIF4A1, Homo sapiens, UniProt P60842, residues 1-406, full length assumed)
Chain of UniProt P60842 (whole entry, looked up): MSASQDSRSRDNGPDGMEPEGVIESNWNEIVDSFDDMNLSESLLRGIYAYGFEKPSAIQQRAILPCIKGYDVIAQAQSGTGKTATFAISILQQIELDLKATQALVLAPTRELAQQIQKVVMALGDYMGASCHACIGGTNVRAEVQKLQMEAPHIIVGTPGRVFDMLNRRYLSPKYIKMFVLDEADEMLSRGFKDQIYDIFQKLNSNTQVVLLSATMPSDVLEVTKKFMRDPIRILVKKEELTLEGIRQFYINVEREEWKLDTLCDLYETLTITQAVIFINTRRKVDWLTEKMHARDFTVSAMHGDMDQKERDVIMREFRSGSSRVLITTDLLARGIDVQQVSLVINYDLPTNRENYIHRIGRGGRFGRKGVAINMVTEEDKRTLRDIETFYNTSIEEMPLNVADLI
| Sequence | 4-mer enrichment |
| --- | --- |
| CAAG | 0.998 fold |
| AUAG | 1.08 fold |
| GACC | 0.67 fold |
| GGUG | 1.19 fold |
| CCGC | 0.593 fold |
| GAUG | 1.09 fold |
| AGUA | 1.62 fold |
| GUCC | 0.649 fold |
| UUAU | 0.917 fold |
| UUUA | 0.959 fold |
| GGUC | 0.736 fold |

For quick reference, copied from above (sample 1):
| Sequence | log fluorescence [z-score] |
| --- | --- |
| GACGGTATCGGGACTGGAGACGTGCTA | -0.246 |
| GTCGATCTCAGTCTCGAGACGTGCTAG | 0.877 |
| GACGGGATCGGACTGGGGACGTGCTAG | 0.0783 |
